Measurements of several laboratories.
Every numbered part comes from another study and shows a few of its results, in no order. Positions count from the first letter of the parent shown.

Block 1 — method: DHFR PCA, deep sequencing; sample: yeast; together with: (+)-ABA 0.0091 µM; relative to: wild-type fitted maximum; direction: higher = stronger binding
Target: ABI1, truncated, D143A, DHFR fusion (Arabidopsis thaliana)
Notes: methotrexate growth selection, single substitutions
Starting sequence: PYL1, truncated, DHFR fusion (Arabidopsis thaliana); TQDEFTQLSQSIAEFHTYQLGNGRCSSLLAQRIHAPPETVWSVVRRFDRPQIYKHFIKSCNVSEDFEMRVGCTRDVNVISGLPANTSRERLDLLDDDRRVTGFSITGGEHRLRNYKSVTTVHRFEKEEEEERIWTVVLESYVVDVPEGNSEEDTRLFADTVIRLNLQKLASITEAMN
Variant	relative binding score [%]
E125P	27
E129G	62.3
S11Q	27.5
E151T	25.4
K126S	75
I105E	3.03
F47P	5.24
T119F	-11
K58H	15.1
Q31N	-1.15
V142G	-2.58
N114Y	-0.96
Y115Q	-5.03
E4P	6.28
V78I	42.8
E38V	0.346
V137C	-6.96
R113C	7.91

Block 2 — target: NFE2, bZIP domain (human); method: DHFR protein complementation; sample: yeast; relative to: wild-type JUN-FOS pair; direction: higher = stronger binding
Notes: single substitutions, most at no-binding floor
Starting sequence: JUN, bZIP domain (human); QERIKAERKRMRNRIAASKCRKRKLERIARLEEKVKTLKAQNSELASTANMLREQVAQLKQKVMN; partner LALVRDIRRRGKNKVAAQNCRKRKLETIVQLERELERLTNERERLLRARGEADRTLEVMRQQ
Variant	binding fitness [natural log]
A49Q	-1.48
R30C	-1.4
T37I	-1.45
E54I	-1.45
E54C	-1.52
V35L	-1.57
K34Q	-1.42
A57P	-1.48
A49L	-1.22
R53Y	-1.4
Q55M	-1.53
T37H	-1.32
K39H	-1.45
E44H	-1.38
A29D	-1.39
T37Q	-1.39
L31G	-1.47
V56Y	-1.51
A40P	-1.52
L45M	-1.29
Q55R	-1.5
R53C	-1.54
Q41I	-1.23
K36N	-1.39
E44L	-1.41

Block 3 — target: CCNE1, cyclin fold, Cln2 fusion (human); method: yeast growth competition, sequencing; sample: yeast; notes: strong parent motif; relative to: not given; direction: higher = stronger binding
Starting sequence: BRCA2 docking peptide (human); PSIKRNLLNEFDR; partner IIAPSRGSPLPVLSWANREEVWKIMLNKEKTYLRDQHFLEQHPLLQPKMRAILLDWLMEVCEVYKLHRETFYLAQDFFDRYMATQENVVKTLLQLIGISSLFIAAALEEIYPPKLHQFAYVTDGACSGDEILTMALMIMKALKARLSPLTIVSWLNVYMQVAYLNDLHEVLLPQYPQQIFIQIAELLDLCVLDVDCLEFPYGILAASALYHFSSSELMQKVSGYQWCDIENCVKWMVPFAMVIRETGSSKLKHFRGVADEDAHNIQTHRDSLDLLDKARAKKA
Variant	normalised enrichment score
L8H	0.369
R5A	0.125
I3R	-0.0704
R5I	0.721
P1H	2.54
F11I	1.74
L7E	0.264
P1D	1.76
K4V	2.27
K4Y	0.0706
E10I	1.23
S2D	1.4
N9I	1.91
L8K	0.071
N6G	-0.369
F11Q	0.278
I3C	5.92
P1F	1.16
N6S	0.712
R5G	-0.673
R13A	2.93
K4H	0.442
R5N	-0.224
S2R	1.29

Block 4 — method: protein-binding microarray; form: double-stranded DNA, one strand shown; sample: in vitro; concentration: 2540 nM top; notes: 60-bp whole probe; together with: salmon DNA 0.4 mg/ml; relative to: random background probes; direction: higher = stronger binding; all sequences stand within: GCCTAGCAC … GTCTTGATTCGCTTGACGCTGCTG
Target: Interferon regulatory factor 3, full length, phosphomimetic (IRF3, Homo sapiens, UniProt Q14653, residues 1-427, S386D/S396D/S398D/S402D/T404D/S405D)
Residues (chain): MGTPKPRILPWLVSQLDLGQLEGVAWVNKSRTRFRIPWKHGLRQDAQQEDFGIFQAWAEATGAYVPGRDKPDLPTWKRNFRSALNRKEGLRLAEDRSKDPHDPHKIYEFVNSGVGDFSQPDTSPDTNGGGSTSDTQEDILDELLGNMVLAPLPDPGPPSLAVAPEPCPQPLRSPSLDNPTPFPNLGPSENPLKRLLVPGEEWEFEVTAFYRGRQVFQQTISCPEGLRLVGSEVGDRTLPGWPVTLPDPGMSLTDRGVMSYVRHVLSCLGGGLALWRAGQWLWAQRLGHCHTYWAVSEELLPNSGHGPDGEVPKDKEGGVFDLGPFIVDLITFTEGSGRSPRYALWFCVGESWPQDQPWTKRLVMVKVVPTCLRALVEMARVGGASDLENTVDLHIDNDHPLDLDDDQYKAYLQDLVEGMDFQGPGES
Strand	fitted relative affinity
GACGGAGTGGACTATCGGGACGTGCTA	-0.626 z-score
GGGTCTGTGCCTTTTTTTTTGTGCTAG	0.354 z-score
TCACCACTTTCTTTTGCACTGTGCTAG	1.51 z-score
TTAGGACTGGGTCTCGGCTAGTGCTAG	-0.965 z-score
TTAGGTTTACTACTGCTTTAGTGCTAG	0.259 z-score
TTAGGACTGGGACTGGGTAAGTGCTAG	-0.862 z-score
TTAGATATCGGGTATCGATCAGTGCTA	0.139 z-score
GACGGTTTCGACTTTCGGGATGTGCTA	4.06 z-score
TTAGGTATCCTCCTCCTTTAGTGCTAG	2.3 z-score
GCTCCTTTTAATTTTTAACGGTGCTAG	5.01 z-score
TTAGGTATCGGGTTTCCGTTAGTGCTA	3.16 z-score
AAAGATTTACAAACTGTGAGGGTGCTA	-0.118 z-score
TCATCCATGTGTTTAAAACTGTGCTAG	0.139 z-score
TTAGGACTGGGTCTCGGTTTGTGCTAG	-0.476 z-score
TTAGATATCGGGTTTCGATTCGTGCTA	3.17 z-score
GACGGTTTCCTACGGCTGACGTGCTAG	3 z-score
TGGGGTTCACTCCGGTACCCGTGCTAG	-0.844 z-score
GACGATAGCGGGACTGGAGACGTGCTA	-0.708 z-score
TTAGGTCTCCTTCTCCCTTAGTGCTAG	4.13 z-score
